Published values from different studies.
Compare with care: the assays were run in different laboratories.
Cell line: MDA-MB-231

SMILES | assay | setting | IC50
O=C1C=CC2(Oc3cccc4cccc(c34)O2)c2ccccc21 | cell growth or viability, resazurin | 72 h | 3.1 µM
C[C@@H]1CC[C@@H]([C@](O)(CNCc2cccc(F)c2)COCc2ccccc2)[C@H](OCc2ccccc2)C1 | cell growth or viability, MTT | 72 h | 3.93 µM
Cc1ccc(C(=O)N2CCN(CC(OCc3ccc4ccccc4c3)c3ccc(Cl)cc3Cl)CC2)cc1 (centres unmarked) | cell growth or viability, MTT | 24 h | 39.2 µM
COc1cccc(N2C(=O)CS/C2=N\N=C\c2cccc3cc4ccccc4nc23)c1 | cell growth or viability, MTT | 48 h | > 50 µM
CCCc1cc2cc(-n3nc(C(C)C)c4c3CC(C)(C)CC4=O)cc(N3CCC(O)CC3)c2c(=O)[nH]1 | cell growth or viability, MTS | – | 8.17 µM
Clc1ccc(C(Cn2cncn2)OCc2ccc3ccccc3c2)c(Cl)c1 (centres unmarked) | cell growth or viability, MTT | 24 h | 33 µM
CC(C)=CC1OC(C)(C)C2C=C3C(=O)C(Cl)=CC(O)C3C3C(O)C4OC4C(=O)C132 (centres unmarked) | cell growth or viability, MTS | – | 8.37 µM
C=CCOc1c(C)c(OC)c(C(=O)/C=C/c2ccccc2)c(OCC=C)c1C | cell growth or viability, SRB | 72 h | > 50 µM
CN1CCN(CC(=O)N2CCN(CC(OCc3ccc4ccccc4c3)c3ccc(Cl)cc3Cl)CC2)CC1 (centres unmarked) | cell growth or viability, MTT | 24 h | 4.2 µM
CC[C@H](C)/C=C/C=C/C=C/C(O)=C/C(=O)C(F)(F)F | cell growth, CellTiter-Glo | – | 28.4 µM
O=C1CS/C(=N\N=C2/C(=O)N(CCn3ncc4c(=O)[nH]cnc43)c3ccc(Cl)cc32)N1 | cell growth or viability, SRB | 72 h | 23.6 µg/mL
CCCCCCCCCCCC(=O)Oc1c(C)c(OC)c2c(c1C)OC(=O)[C@@H](CCCCCCCCCC)[C@]2(O)/C=C/c1ccccc1 (relative stereo) | cell growth or viability, SRB | 72 h | > 50 µM
C[C@@H]1CC[C@@H]([C@@](O)(COCc2ccccc2)Cn2cnc3ccccc32)[C@H](OCc2ccccc2)C1 | cell growth or viability, MTT | 72 h | 12.4 µM
CNC(NN=Cc1ccc([N+](=O)[O-])o1)=[S+][Au-][Cl] | cell growth or viability, resazurin | – | 18.3 µM
C[C@@H]1CC[C@@H]([C@@](O)(CNCc2ccc(F)cc2)COCc2ccccc2)[C@H](OCc2ccccc2)C1 | cell growth or viability, MTT | 72 h | 3.78 µM
CCCc1cc2cc(-n3cc(C)c4c3CC(C)(C)CC4=O)cc(N3CCC(O)CC3)c2c(=O)[nH]1 | cell growth or viability, MTS | – | 7.28 µM
COc1ccc(CNc2ccc3c(c2)S(=O)(=O)C=C3)cc1 | cell growth or viability, ATP luminescence | 72 h | 1.5 µM
CC(=O)OC[C@H]1O[C@@H](Oc2ccc(C#[C][Pt+])cc2)[C@H](OC(C)=O)[C@@H](OC(C)=O)[C@@H]1OC(C)=O.O=S(=O)([O-])C(F)(F)F.c1ccc(-c2cccc(-c3ccccn3)n2)nc1 | cell growth or viability | 24 h | > 100 µM
CCCc1cc2cc(-n3nc(C4CC4)c4c3CC(C)(C)CC4=O)cc(N3CCC(O)CC3)c2c(=O)[nH]1 | cell growth or viability, MTS | – | 7.13 µM
CCOC(=O)/C=C1\S/C(=N\N=C\c2cccc3cc4ccccc4nc23)N(c2ccccc2)C1=O | cell growth or viability, MTT | 48 h | > 50 µM

For quick reference, copied from above:
SMILES | assay | setting | IC50
O=C1C=CC2(Oc3cccc4cccc(c34)O2)c2ccccc21 | cell growth or viability, resazurin | 72 h | 3.1 µM
C[C@@H]1CC[C@@H]([C@](O)(CNCc2cccc(F)c2)COCc2ccccc2)[C@H](OCc2ccccc2)C1 | cell growth or viability, MTT | 72 h | 3.93 µM
Cc1ccc(C(=O)N2CCN(CC(OCc3ccc4ccccc4c3)c3ccc(Cl)cc3Cl)CC2)cc1 (centres unmarked) | cell growth or viability, MTT | 24 h | 39.2 µM
